Experimental data gathered from unrelated publications.
± gives the spread as reported.
Spike glycoprotein: Spike glycoprotein (Severe acute respiratory syndrome coronavirus 2, UniProt P0DTC2)
S: Spike glycoprotein (S, Human coronavirus NL63, UniProt Q6Q1S2)
Sequence of UniProt Q6Q1S2 (whole entry, looked up): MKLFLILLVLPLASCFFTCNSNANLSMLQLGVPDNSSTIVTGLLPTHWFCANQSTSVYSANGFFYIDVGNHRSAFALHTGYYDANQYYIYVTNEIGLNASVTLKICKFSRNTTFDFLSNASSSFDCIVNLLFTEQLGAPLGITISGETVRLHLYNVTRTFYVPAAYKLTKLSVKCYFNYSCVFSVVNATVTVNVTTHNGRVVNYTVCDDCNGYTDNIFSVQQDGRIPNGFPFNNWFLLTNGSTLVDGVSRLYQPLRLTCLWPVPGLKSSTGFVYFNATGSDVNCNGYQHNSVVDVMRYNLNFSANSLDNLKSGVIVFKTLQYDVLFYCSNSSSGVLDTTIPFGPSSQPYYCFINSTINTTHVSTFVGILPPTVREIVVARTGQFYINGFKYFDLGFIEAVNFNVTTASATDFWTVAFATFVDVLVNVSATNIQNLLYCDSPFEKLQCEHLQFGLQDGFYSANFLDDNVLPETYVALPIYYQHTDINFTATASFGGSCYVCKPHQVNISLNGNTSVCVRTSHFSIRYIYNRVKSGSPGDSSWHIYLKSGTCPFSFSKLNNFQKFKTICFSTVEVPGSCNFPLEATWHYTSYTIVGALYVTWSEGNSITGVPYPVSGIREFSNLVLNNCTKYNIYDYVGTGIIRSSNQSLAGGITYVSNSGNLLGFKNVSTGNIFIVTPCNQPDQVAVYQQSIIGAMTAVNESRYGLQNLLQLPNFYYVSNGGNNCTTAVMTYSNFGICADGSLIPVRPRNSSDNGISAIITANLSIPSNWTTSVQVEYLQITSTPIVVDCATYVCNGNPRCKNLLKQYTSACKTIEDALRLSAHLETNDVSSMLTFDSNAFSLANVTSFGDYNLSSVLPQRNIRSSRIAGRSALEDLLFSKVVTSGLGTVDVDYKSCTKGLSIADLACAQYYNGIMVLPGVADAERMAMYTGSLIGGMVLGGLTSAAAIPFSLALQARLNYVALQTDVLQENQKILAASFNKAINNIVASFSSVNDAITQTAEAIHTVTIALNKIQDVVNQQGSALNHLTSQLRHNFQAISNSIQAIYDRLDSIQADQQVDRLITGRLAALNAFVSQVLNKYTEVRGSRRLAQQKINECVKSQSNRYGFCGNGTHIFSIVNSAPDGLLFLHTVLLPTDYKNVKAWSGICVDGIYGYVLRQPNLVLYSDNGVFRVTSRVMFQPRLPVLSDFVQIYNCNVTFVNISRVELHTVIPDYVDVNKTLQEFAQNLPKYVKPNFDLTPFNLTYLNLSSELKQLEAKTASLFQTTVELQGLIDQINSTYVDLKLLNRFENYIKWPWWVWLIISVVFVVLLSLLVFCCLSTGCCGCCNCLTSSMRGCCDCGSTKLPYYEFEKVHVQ
Sequence of UniProt Q9UGM1 (whole entry, looked up): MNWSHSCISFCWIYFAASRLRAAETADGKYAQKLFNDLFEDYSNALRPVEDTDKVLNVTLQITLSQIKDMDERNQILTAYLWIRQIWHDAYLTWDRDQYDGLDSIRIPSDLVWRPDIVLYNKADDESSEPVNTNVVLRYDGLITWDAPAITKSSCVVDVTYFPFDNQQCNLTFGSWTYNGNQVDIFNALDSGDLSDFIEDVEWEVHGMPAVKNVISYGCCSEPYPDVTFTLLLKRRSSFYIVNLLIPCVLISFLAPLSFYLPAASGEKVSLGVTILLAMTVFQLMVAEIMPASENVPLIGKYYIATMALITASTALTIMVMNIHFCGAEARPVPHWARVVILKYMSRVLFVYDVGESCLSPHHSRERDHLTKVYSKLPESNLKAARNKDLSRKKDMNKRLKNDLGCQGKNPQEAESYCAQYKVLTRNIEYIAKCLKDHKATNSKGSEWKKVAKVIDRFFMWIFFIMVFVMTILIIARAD
Sequence of UniProt P36544 (whole entry, looked up): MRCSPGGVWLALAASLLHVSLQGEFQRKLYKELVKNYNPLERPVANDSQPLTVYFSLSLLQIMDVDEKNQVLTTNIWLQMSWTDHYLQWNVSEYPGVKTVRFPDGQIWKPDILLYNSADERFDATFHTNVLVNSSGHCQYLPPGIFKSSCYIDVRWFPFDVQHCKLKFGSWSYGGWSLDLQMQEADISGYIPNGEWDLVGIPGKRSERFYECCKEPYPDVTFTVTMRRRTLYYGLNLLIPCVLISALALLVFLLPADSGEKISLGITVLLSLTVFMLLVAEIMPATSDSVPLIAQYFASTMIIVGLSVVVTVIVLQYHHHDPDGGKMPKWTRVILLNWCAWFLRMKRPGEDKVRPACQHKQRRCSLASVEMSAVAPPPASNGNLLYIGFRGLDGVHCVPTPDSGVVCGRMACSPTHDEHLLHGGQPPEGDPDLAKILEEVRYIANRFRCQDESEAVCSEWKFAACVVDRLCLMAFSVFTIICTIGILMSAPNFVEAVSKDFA
Sequence of UniProt Q9GZZ6 (whole entry, looked up): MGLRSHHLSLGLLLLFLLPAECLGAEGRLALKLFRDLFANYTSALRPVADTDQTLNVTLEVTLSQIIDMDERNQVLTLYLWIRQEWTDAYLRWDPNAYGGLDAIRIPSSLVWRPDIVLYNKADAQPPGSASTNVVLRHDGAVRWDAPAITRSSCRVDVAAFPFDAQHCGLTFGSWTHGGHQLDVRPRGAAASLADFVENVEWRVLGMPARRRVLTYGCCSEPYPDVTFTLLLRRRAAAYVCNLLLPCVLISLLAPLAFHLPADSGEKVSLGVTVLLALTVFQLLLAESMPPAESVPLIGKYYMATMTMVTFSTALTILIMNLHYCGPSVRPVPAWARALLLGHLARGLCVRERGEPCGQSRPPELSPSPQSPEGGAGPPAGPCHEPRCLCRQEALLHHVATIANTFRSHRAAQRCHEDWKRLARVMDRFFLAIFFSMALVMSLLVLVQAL
Sequence of UniProt Q14524 (whole entry, looked up): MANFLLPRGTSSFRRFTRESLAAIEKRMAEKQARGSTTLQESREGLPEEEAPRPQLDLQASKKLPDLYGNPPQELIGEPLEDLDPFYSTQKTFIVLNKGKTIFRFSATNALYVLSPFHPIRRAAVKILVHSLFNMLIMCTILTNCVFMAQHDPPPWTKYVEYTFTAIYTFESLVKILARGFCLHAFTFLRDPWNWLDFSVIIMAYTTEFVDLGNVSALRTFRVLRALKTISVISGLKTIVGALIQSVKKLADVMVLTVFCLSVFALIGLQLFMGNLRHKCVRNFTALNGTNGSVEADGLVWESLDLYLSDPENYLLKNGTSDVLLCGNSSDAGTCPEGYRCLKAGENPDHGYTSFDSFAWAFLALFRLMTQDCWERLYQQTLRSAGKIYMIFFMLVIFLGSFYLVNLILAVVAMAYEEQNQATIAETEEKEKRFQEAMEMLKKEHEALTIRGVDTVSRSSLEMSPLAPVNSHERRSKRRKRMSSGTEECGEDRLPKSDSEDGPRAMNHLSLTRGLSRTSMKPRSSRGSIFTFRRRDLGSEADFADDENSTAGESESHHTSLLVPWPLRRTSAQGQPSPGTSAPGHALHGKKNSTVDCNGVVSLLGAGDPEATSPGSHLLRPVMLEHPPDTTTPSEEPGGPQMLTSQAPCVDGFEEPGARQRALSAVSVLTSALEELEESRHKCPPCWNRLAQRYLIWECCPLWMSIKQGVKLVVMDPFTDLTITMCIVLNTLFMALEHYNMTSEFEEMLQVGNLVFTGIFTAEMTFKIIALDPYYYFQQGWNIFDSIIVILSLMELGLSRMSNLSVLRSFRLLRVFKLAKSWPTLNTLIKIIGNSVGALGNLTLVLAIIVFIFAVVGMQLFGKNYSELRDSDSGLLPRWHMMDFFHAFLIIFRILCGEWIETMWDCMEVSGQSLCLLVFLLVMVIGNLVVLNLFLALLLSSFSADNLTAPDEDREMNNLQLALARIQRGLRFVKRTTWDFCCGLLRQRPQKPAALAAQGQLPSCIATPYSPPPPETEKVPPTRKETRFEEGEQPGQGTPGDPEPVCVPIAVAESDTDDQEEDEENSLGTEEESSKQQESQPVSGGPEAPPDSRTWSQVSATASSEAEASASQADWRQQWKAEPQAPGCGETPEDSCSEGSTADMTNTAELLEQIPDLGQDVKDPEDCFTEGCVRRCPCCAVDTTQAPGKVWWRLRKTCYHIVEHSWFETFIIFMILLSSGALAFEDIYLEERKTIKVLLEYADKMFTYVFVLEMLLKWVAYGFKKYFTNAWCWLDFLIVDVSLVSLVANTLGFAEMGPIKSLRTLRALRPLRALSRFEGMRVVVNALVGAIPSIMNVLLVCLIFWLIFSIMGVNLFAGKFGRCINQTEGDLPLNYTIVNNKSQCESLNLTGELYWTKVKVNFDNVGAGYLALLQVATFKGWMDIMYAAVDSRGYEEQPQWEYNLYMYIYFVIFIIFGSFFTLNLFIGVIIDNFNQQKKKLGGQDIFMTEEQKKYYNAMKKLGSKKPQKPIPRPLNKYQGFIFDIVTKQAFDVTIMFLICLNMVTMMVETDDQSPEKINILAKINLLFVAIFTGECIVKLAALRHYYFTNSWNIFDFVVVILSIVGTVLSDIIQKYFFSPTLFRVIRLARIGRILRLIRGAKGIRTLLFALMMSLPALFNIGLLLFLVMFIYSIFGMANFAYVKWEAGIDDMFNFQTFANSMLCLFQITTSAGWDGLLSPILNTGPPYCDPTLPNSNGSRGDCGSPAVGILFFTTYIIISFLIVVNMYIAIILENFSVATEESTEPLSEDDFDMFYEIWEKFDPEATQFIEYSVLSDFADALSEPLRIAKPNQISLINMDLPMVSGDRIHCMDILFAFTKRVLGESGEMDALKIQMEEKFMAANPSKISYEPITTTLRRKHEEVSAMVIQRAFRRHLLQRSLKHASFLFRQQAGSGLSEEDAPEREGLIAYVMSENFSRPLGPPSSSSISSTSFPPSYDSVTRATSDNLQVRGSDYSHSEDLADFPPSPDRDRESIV

SMILES | tested on | test | system | conditions | how to read | quantity | result
O=C(/C=C/c1ccc(O)c(O)c1)OC[C@H]1O[C@@H](OCCc2ccc(O)c(O)c2)[C@H](O)[C@@H](O)[C@@H]1O | Spike glycoprotein | binding, biolayer interferometry |  |  |  | Kd | 11 µM
CC[C@H](C)[C@H](NC(=O)[C@H](CC(=O)O)NC(=O)[C@H](CCCCN)NC(=O)[C@H](CC(C)C)NC(=O)[C@H](CC(N)=O)NC(=O)[C@@H](NC(=O)[C@H](Cc1ccc(O)cc1)NC(=O)[C@H](CO)NC(=O)[C@H](CCC(N)=O)NC(=O)[C@H](CCC(=O)O)NC(=O)[C@H](CC(C)C)NC(=O)[C@H](CCCCN)NC(=O)[C@H](CCCCN)NC(=O)[C@@H](NC(=O)[C@H](C)NC(=O)[C@H](CCC(=O)O)NC(=O)[C@H](CCC(=O)O)NC(=O)[C@H](CC(C)C)NC(=O)[C@H](CCCCN)NC(=O)[C@H](CCCCN)NC(=O)[C@H](CCSC)NC(=O)[C@H](CCC(=O)O)NC(=O)[C@H](CC(=O)O)NC(=O)[C@H](CCC(N)=O)NC(=O)[C@H](CC(C)C)NC(=O)[C@H](CC(=O)O)NC(=O)[C@H](CC(C)C)NC(=O)[C@H](Cc1ccccc1)NC(=O)[C@@H](NC(=O)[C@@H](NC(=O)[C@H](CC(N)=O)NC(=O)[C@@H](NC(=O)[C@H](Cc1ccc(O)cc1)NC(=O)[C@H](CC(=O)O)NC(=O)[C@H](CC(C)C)NC(=O)[C@@H](N)CO)[C@@H](C)CC)C(C)C)[C@@H](C)O)[C@@H](C)CC)[C@@H](C)CC)C(=O)O | S |  |  |  |  | IC50 | 0.78 ± 0.1 µM
CCOP(=O)(OCC)Oc1ccc([N+](=O)[O-])cc1 | rat liver carboxylesterase | enzyme activity, inhibitor | rat, postnatal day 1, liver homogenate | with: p-nitrophenyl valerate |  | IC50 | 0.00013 µM
Cn1cnc(Cn2c(=O)[nH]/c(=N\c3cc4cn(C)nc4cc3Cl)n(Cc3cc(F)c(F)cc3F)c2=O)n1 |  |  | human, all renal function groups | oral, 375 mg, treatment-related dry mouth, Severe severity |  | patients with adverse event | 0%
COc1cc(NC(=O)c2ccc(-c3ccc(Cl)cc3)o2)cc(OC)c1 | Sodium channel protein type 5 subunit alpha (SCN5A, Homo sapiens, UniProt Q14524) | late sodium current, whole-cell voltage clamp | ND7/23 transfected | pH 7.4, TTX 200 nM, with: ATX-II 100 nM |  | IC50 | ~5 µM
COc1ccc2ccccc2c1/C=N/NC(=O)c1ccc(O)c(O)c1 | Gag-Pol polyprotein, reverse transcriptase A502G (gag-pol, Human immunodeficiency virus type 1 group M subtype B, UniProt P04585, A1089G) | RNase H activity, inhibitor | HIV-1 |  |  | IC50 | 13.7 ± 5.2 µM
Nc1ncnc2c([C@@H]3N[C@H](CO)[C@@H](O)[C@H]3O)c[nH]c12 | Sudan ebolavirus | viral replication | HeLa, Boniface | 6.3 µM |  | inhibition | 65.9%
CC[C@H](C)[C@H](NC(=O)[C@H](CC(C)C)NC(=O)[C@H](Cc1c[nH]c2ccccc12)NC(=O)[C@H](CCC(N)=O)NC(=O)[C@@H](NC(=O)[C@H](Cc1ccccc1)NC(=O)[C@H](C)NC(=O)[C@H](CCCCNC(=O)COCCOCCNC(=O)COCCOCCNC(=O)CC[C@H](NC(=O)CCCCCCCCCCCCCCCCCCC(=O)O)C(=O)O)NC(=O)[C@H](CCC(N)=O)NC(=O)[C@H](C)NC(=O)[C@@H](NC(=O)[C@H](CCCCN)NC(=O)[C@H](CC(=O)O)NC(=O)[C@H](CC(C)C)NC(=O)C(C)(C)NC(=O)[C@@H](NC(=O)[C@H](CO)NC(=O)[C@H](Cc1ccc(O)cc1)NC(=O)[C@H](CC(=O)O)NC(=O)[C@H](CO)NC(=O)[C@@H](NC(=O)[C@H](Cc1ccccc1)NC(=O)[C@@H](NC(=O)CNC(=O)[C@H](CCC(=O)O)NC(=O)C(C)(C)NC(=O)[C@@H](N)Cc1ccc(O)cc1)[C@@H](C)O)[C@@H](C)O)[C@@H](C)CC)[C@@H](C)CC)C(C)C)C(=O)N[C@@H](C)C(=O)NCC(=O)NCC(=O)N1CCC[C@H]1C(=O)N[C@@H](CO)C(=O)N[C@@H](CO)C(=O)NCC(=O)N[C@@H](C)C(=O)N1CCC[C@H]1C(=O)N1CCC[C@H]1C(=O)N1CCC[C@H]1C(=O)N[C@@H](CO)C(N)=O |  | measured: anti-drug antibodies | patients with type 2 diabetes | 5/5/10/10 mg escalating, titer increase ≥4-fold |  | subjects with treatment-boosted ADA | 8.3%
CC[C@H](C)[C@H](NC(=O)[C@H](CCC(=O)O)NC(=O)[C@H](CCCCN)NC(=O)[C@H](CC(C)C)NC(=O)[C@H](CC(N)=O)NC(=O)[C@@H](NC(=O)[C@H](Cc1ccc(O)cc1)NC(=O)[C@H](CO)NC(=O)[C@H](CCC(=O)O)NC(=O)[C@H](CCC(=O)O)NC(=O)[C@H](CC(C)C)NC(=O)[C@H](CCCCN)NC(=O)[C@H](CCCCN)NC(=O)[C@@H](NC(=O)[C@H](C)NC(=O)[C@H](CCC(=O)O)NC(=O)[C@H](CCC(=O)O)NC(=O)[C@H](CC(C)C)NC(=O)[C@H](CCCCN)NC(=O)[C@H](CCCCN)NC(=O)[C@H](CCSC)NC(=O)[C@H](CCC(=O)O)NC(=O)[C@H](CC(=O)O)NC(=O)[C@H](CCC(=O)O)NC(=O)[C@H](CC(C)C)NC(=O)[C@H](CC(=O)O)NC(=O)[C@H](CC(C)C)NC(=O)[C@H](Cc1ccccc1)NC(=O)[C@@H](NC(=O)[C@@H](NC(=O)[C@H](CC(N)=O)NC(=O)[C@@H](NC(=O)[C@H](Cc1ccc(O)cc1)NC(=O)[C@H](CC(=O)O)NC(=O)[C@H](CC(C)C)NC(=O)[C@@H](N)CO)[C@@H](C)CC)C(C)C)[C@@H](C)O)[C@@H](C)CC)[C@@H](C)CC)C(=O)O | S |  |  |  |  | IC50 | 0.63 ± 0.12 µM
O=C1c2c(O)cccc2C([C@@H]2O[C@H](CO)[C@@H](O)[C@H](O)[C@H]2O)c2cc(CO)cc(O)c21 (stereo partly drawn) | Spike glycoprotein | binding, biolayer interferometry |  |  |  | Kd | 50.9 µM
C[C@H](Cn1cnc2c(N)ncnc21)OCP(=O)(O)O | Gag-Pol polyprotein, reverse transcriptase (gag-pol, Human immunodeficiency virus type 1 group M subtype B, UniProt P04585, K653A) | inhibitor | HIV-1 |  |  | IC50 | 1.635 ± 0.00116 µM
C=C1CCCC2=NC[C@H](C)[C@@H](C)C[C@@]23CCC(C(=O)O)=C[C@@H]3[C@@H]2O[C@]3(C[C@H]4CCC[C@@]5(CC[C@@]6(O[C@@H](CC[C@@]6(C)O)C1)O5)O4)C[C@@H](C)[C@@H](O)[C@H]2O3 | Neuronal acetylcholine receptor subunit alpha-7 (CHRNA7, Homo sapiens, UniProt P36544) | ion current, antagonist, two-electrode voltage clamp |  | oocytes |  | IC50 | 0.000107 µM
Cc1cn([C@H]2C[C@H](N=[N+]=[N-])[C@@H](CO[P@](=O)(O)O[P@](=O)(O)OP(=O)(O)O)O2)c(=O)[nH]c1=O | Gag-Pol polyprotein, reverse transcriptase (gag-pol, Human immunodeficiency virus type 1 group M subtype B, UniProt P04585, K653R) | inhibitor | HIV-1 |  |  | IC50 | 0.25 µM
O=C(O)C(=O)C=C(O)c1cn(Cc2ccc(F)cc2)c2cc(N3CCCC3)ccc2c1=O | Gag-Pol polyprotein, integrase (gag-pol, Human immunodeficiency virus 1, UniProt P12497, N1302H) | concerted integration, inhibitor, measured: donor-donor products |  | 3 h, 37 °C |  | IC50 | 0.26 ± 0.091 µM
Cc1cn([C@H]2C=C[C@@H](COP(=O)(O)OP(=O)(O)OP(=O)(O)O)O2)c(=O)[nH]c1=O | Gag-Pol polyprotein, reverse transcriptase (gag-pol, Human immunodeficiency virus type 1 group M subtype B, UniProt P04585, K652A) | inhibitor | HIV-1 |  |  | IC50 | 15.7 ± 1.17 µM
CNC(=O)[C@@H](NC(=O)[C@H](CC(C)C)[C@H](O)C(=O)NO)C(C)(C)C | Daboia russelii venom proteases (SVMP) | protease activity, inhibitor | KA population | 0.1 µM, with: azocasein substrate | relative to: venom alone | remaining activity | 90%
O=C1C[C@@H]2OCC=C3CN4CC[C@]56c7ccccc7N1[C@H]5[C@H]2[C@H]3C[C@H]46 | Neuronal acetylcholine receptor; alpha9/alpha10 (Homo sapiens, UniProt Q9GZZ6+Q9UGM1) | inhibitor |  |  |  | IC50 | 4.11 ± 1.4 µM
CC1Oc2cc3c(-c4c(O)cc(O)c5c(O)c6c(cc45)OC(C)C(C)C6=O)c(O)cc(O)c3c(O)c2C(=O)C1C (stereo not drawn) | Replicase polyprotein 1ab, 3C-like proteinase (Feline coronavirus, UniProt Q98VG9) | protease activity, inhibitor |  | with: 6 µM fluorogenic substrate |  | IC50 | 6.36 ± 2.15 µM

Excerpt of the above:
SMILES | tested on | test | system | conditions | how to read | quantity | result
CC[C@H](C)[C@H](NC(=O)[C@H](CC(=O)O)NC(=O)[C@H](CCCCN)NC(=O)[C@H](CC(C)C)NC(=O)[C@H](CC(N)=O)NC(=O)[C@@H](NC(=O)[C@H](Cc1ccc(O)cc1)NC(=O)[C@H](CO)NC(=O)[C@H](CCC(N)=O)NC(=O)[C@H](CCC(=O)O)NC(=O)[C@H](CC(C)C)NC(=O)[C@H](CCCCN)NC(=O)[C@H](CCCCN)NC(=O)[C@@H](NC(=O)[C@H](C)NC(=O)[C@H](CCC(=O)O)NC(=O)[C@H](CCC(=O)O)NC(=O)[C@H](CC(C)C)NC(=O)[C@H](CCCCN)NC(=O)[C@H](CCCCN)NC(=O)[C@H](CCSC)NC(=O)[C@H](CCC(=O)O)NC(=O)[C@H](CC(=O)O)NC(=O)[C@H](CCC(N)=O)NC(=O)[C@H](CC(C)C)NC(=O)[C@H](CC(=O)O)NC(=O)[C@H](CC(C)C)NC(=O)[C@H](Cc1ccccc1)NC(=O)[C@@H](NC(=O)[C@@H](NC(=O)[C@H](CC(N)=O)NC(=O)[C@@H](NC(=O)[C@H](Cc1ccc(O)cc1)NC(=O)[C@H](CC(=O)O)NC(=O)[C@H](CC(C)C)NC(=O)[C@@H](N)CO)[C@@H](C)CC)C(C)C)[C@@H](C)O)[C@@H](C)CC)[C@@H](C)CC)C(=O)O | S |  |  |  |  | IC50 | 0.78 ± 0.1 µM
CCOP(=O)(OCC)Oc1ccc([N+](=O)[O-])cc1 | rat liver carboxylesterase | enzyme activity, inhibitor | rat, postnatal day 1, liver homogenate | with: p-nitrophenyl valerate |  | IC50 | 0.00013 µM
Cn1cnc(Cn2c(=O)[nH]/c(=N\c3cc4cn(C)nc4cc3Cl)n(Cc3cc(F)c(F)cc3F)c2=O)n1 |  |  | human, all renal function groups | oral, 375 mg, treatment-related dry mouth, Severe severity |  | patients with adverse event | 0%
